# Measured values collected from several papers.
# Lines come from different studies, so protocols differ. ± gives the spread as reported.
Structure (SMILES),assay,test system,setting,how to read,measurement,result
O=C(N[C@@H](CSCc1ccc([N+](=O)[O-])cc1)C(=O)NO)c1ccccc1,,"ICR mouse, male","oral, 14 days",,LD50,> 2000 mg/kg
Cc1ccc(NC(=O)c2ccnc(C(F)(F)F)c2)cc1-c1cc(OCCO)nc(N2CCOCC2)c1,,human,"twice daily, single agent",,maximum tolerated dose,600 mg
COc1cc2c(Oc3ccc4[nH]c(C)cc4c3F)ccnc2cc1OCC1(N)CC1,,paediatric refractory sarcoma patients,8 mg,,hand-foot syndrome incidence,0%
C[C@@H]1NC(=O)[C@H](CCCCNC(=O)CO/N=C/C(=O)NCCCC[C@@H]2NC(=O)[C@@H](Cc3ccccc3)NC(=O)[C@H](CC(=O)O)NC(=O)CNC(=O)[C@H](CCCNC(=N)N)NC2=O)NC(=O)CNC(=O)[C@@H]2CCCN2C(=O)[C@H](CCCCNC(=O)CO/N=C/C(=O)NCCCC[C@@H]2NC(=O)[C@@H](Cc3ccccc3)NC(=O)[C@H](CC(=O)O)NC(=O)CNC(=O)[C@H](CCCNC(=N)N)NC2=O)NC(=O)[C@H](CCCCNC(=O)CCNC(=O)CCNC(=O)CCNC(=O)[C@H](CCCCN)NC(=O)[C@H](Cc2ccccc2)NC(=O)CNC(=O)CN2CCCNCCNCCCNCC2)NC(=O)[C@H](CCCCNC(=O)CO/N=C/C(=O)NCCCC[C@@H]2NC(=O)[C@@H](Cc3ccccc3)NC(=O)[C@H](CC(=O)O)NC(=O)CNC(=O)[C@H](CCCNC(=N)N)NC2=O)NC(=O)CNC(=O)[C@@H]2CCCN2C(=O)[C@H](CCCCNC(=O)CO/N=C/C(=O)NCCCC[C@@H]2NC(=O)[C@@H](Cc3ccccc3)NC(=O)[C@H](CC(=O)O)NC(=O)CNC(=O)[C@H](CCCNC(=N)N)NC2=O)NC1=O [copper-64 labelled],,"normal mice, spleen","intravenous, 0.74 MBq, 24 h post-injection",,tissue uptake,2.35 ± 0.25 %ID/g
CC(=O)NCC(=O)NCC(=O)N[C@H](C(=O)N[C@@H](Cc1ccc(O)cc1)C(=O)N[C@@H](CO)C(=O)N[C@H]1CSSC[C@@H](C(=O)N[C@@H](CCCNC(=N)N)C(=O)N2CCC[C@H]2C(=O)N[C@@H](CCC(N)=O)C(=O)N[C@@H](CCCNC(=N)N)C(=O)NCC(=O)NCCC(=O)N[C@@H](CCCCNC(=O)CN(CC(=O)NCCCC[C@H](NC(=O)CCNC(=O)CNC(=O)[C@H](CCCNC(=N)N)NC(=O)[C@H](CCC(N)=O)NC(=O)[C@@H]2CCCN2C(=O)[C@H](CCCNC(=N)N)NC(=O)[C@@H]2CSSC[C@H](NC(=O)[C@H](CO)NC(=O)[C@H](Cc3ccc(O)cc3)NC(=O)[C@@H](NC(=O)CNC(=O)CNC(C)=O)[C@@H](C)O)C(=O)N[C@@H](Cc3c[nH]cn3)C(=O)N[C@@H](Cc3ccccc3)C(=O)NCC(=O)N[C@@H](C)C(=O)N[C@@H](CC(C)C)C(=O)N[C@@H]([C@@H](C)O)C(=O)N[C@@H](Cc3c[nH]c4ccccc34)C(=O)N[C@@H](C(C)C)C(=O)N2)C(N)=O)C(=O)CCN)C(N)=O)NC(=O)[C@H](C(C)C)NC(=O)[C@H](Cc2c[nH]c3ccccc23)NC(=O)[C@H]([C@@H](C)O)NC(=O)[C@H](CC(C)C)NC(=O)[C@H](C)NC(=O)CNC(=O)[C@H](Cc2ccccc2)NC(=O)[C@H](Cc2c[nH]cn2)NC1=O)[C@@H](C)O,MSD immunoassay,"BALB/c mice, healthy female, serum","subcutaneous, 0.08 mg/kg, 192 h, LLOQ 2.0 ng/mL",,serum concentration,not detected
CCNCCCNC/C=C\CNCCCNCC,,"human, advanced solid tumours","intravenous, dose not given",relative to: patients,"drug-related TEAE, blood disorders",19.6%
CC(C)(c1ccc(O)cc1)c1ccc(O)cc1,ultrafiltration,cow milk whey,20 nM nominal in whole milk,,dose fraction in permeate,19.8%
COc1ncccc1-c1cnn2ccc(N3CCN(C(=O)OC(C)C)CC3)nc12,,"mouse nerve ligation model, brain","oral, 10 mg/kg, 120 min after last dose, repeat dosing day 3",,drug concentration,4.8 µM
Cl.Cn1c(=O)n(CCCCN2CCC3(CC2)OCc2ccccc23)c2ccccc21,,"male Sprague-Dawley rat, brain","intravenous, 10 mg/kg",,elimination rate constant,3.61e-05 s⁻¹
CC(C)[C@@H]1NC(=O)CNC(=O)[C@H](CC(N)=O)NC(=O)[C@H](CCCNC(=N)N)NC(=O)[C@H](Cc2ccc(O)cc2)NC(=O)[C@H](C(C)C)NC(=O)[C@@H](NC(=O)[C@@H](NC(=O)[C@H](CC(N)=O)NC(=O)[C@H](Cc2c[nH]c3ccccc23)NC(=O)[C@H](C)NC(=O)[C@H](Cc2ccccc2)NC(=O)CN)C(C)C)CSSC[C@@H](C(=O)N[C@@H](Cc2cnc[nH]2)C(=O)N[C@@H](CCCNC(=N)N)C(=O)N[C@@H](CCCNC(=N)N)C(=O)N[C@@H](C)C(=O)N[C@@H](CC(N)=O)C(N)=O)NC(=O)[C@H](C(C)C)NC(=O)[C@H](CCCNC(=N)N)NC1=O,HPLC,trypsin,"2560 µM, 6.00 h, together with: trypsin 1 % w/v",,remaining peptide,1%
CN(C(=O)n1cnc(-c2ccc[n+]([O-])c2)c1)C1CCCCC1,,"Wistar rat, midbrain","oral, 10 mg/kg/day, 48 h, repeated 5 days",,concentration,13.2 ± 1.6 ng/g
Cn1nc(NS(C)(=O)=O)c2c(Cl)ccc(-n3c([C@H](Cc4cc(F)cc(F)c4)NC(=O)Cn4nc(C(F)F)c5c4C(F)(F)[C@@H]4C[C@H]54)nc4nc(OCCC(F)(F)F)ccc4c3=O)c21,refers to: blood triglycerides increased,human,"1875 mg, powder in bottle",,drug-related adverse events,0%
C=C(CN(C(=O)c1c(C(F)F)nn(C)c1F)C1CC1)c1ccc(Cl)cc1Cl,static acute toxicity test,zebrafish (Brachydanio rerio),"0.482 mg a.i./L, 24 h",,mortality,0%
Cn1c(=O)c2c(ncn2C)n(C)c1=O,PAMPA,pre-coated trilayer membrane,"200 µM, 5 h, pH 7.4, acceptor plate, PBS",,acceptor concentration,43.6 ± 5 µM

# Excerpt of the above:
Structure (SMILES),assay,test system,setting,how to read,measurement,result
Cl.Cn1c(=O)n(CCCCN2CCC3(CC2)OCc2ccccc23)c2ccccc21,,"male Sprague-Dawley rat, brain","intravenous, 10 mg/kg",,elimination rate constant,3.61e-05 s⁻¹
COc1ncccc1-c1cnn2ccc(N3CCN(C(=O)OC(C)C)CC3)nc12,,"mouse nerve ligation model, brain","oral, 10 mg/kg, 120 min after last dose, repeat dosing day 3",,drug concentration,4.8 µM
